Published values pooled from the literature.
± gives the spread as reported. Values after ≈ are worked out from the molar mass of the structure shown.

| Structure (SMILES) | target or system | test | system | setting | scale | quantity | value |
| --- | --- | --- | --- | --- | --- | --- | --- |
| C=CCc1ccc(OCC(=C)C)c(OC)c1 | Spodoptera frugiperda | insecticidal activity | larvae | topical | – | LD50 | 1930 mg/kg |
| CC(=O)NC(Cc1ccc(Br)c(Cl)c1)C(=O)N[C@@H](C)C(=O)N1CCC[C@H]1C(=O)N1CCC[C@H]1C(=O)N[C@@H](CCC(=O)O)C(=O)N[C@@H](Cc1c[nH]cn1)C(=O)N[C@@H](CO)C(=O)N[C@H](C(=O)N[C@@H](C)C(N)=O)[C@@H](C)OP(=O)(O)O (stereo partly drawn) | PAK2 (Homo sapiens, UniProt Q13177) | – | – | 10 µM | – | inhibition | 0.15 ± 0.01% |
| CCCCCCCCCCCCCC(=O)N[C@H](CCN)C(=O)N[C@@H]1C(=O)N[C@@H](CCN)C(=O)N[C@@H](CC(C)C)C(=O)N[C@@H](CCN)C(=O)N[C@H](Cc2ccccc2)C(=O)N[C@@H](CC(C)C)C(=O)N[C@@H](CCN)C(=O)N[C@H](CCN)C(=O)N[C@@H](C(C)C)C(=O)N[C@@H](CC(=O)O)C(=O)O[C@@H]1C | Staphylococcus aureus, Escherichia coli | – | BNCC 186335, ATCC 25922 | 1 × MIC | – | time to complete killing | ≤ 4 h |
| CC[C@H](C)[C@H](NC(=O)[C@H](C)NC(=O)[C@H](CO)NC(=O)CNC(=O)[C@H](C)NC(=O)[C@H](CO)NC(=O)[C@H](CCCCN)NC(=O)[C@H](CC(C)C)NC(=O)[C@H](CCC(=O)O)NC(=O)[C@H](CC(=O)O)NC(=O)[C@H](CCCCN)NC(=O)[C@H](CC(C)C)NC(=O)[C@H](C)NC(=O)[C@H](CCCCN)NC(=O)[C@H](CC(C)C)NC(=O)[C@H](Cc1ccccc1)NC(=O)[C@H](CCCCN)NC(=O)[C@@H](N)CC(C)C)C(=O)NCC(=O)N[C@@H](CCCCN)C(=O)N[C@H](C(=O)N[C@@H](CC(C)C)C(=O)N[C@@H](Cc1c[nH]cn1)C(=O)N[C@@H](CCCCN)C(=O)O)C(C)C | Gram-negative bacteria | MIC | – | concentration not given | – | antibacterial activity | active |
| CC[C@H](C)[C@H](NC(=O)[C@H](CCCCN)NC(=O)[C@H](CCCCN)NC(=O)[C@H](CC(C)C)NC(=O)[C@H](CCCCN)NC(=O)[C@H](CCC(=O)O)NC(=O)[C@H](CCCCN)NC(=O)[C@@H](NC(=O)[C@H](CCCCN)NC(=O)[C@H](CC(N)=O)NC(=O)[C@H](CCCNC(=N)N)NC(=O)[C@H](Cc1ccccc1)NC(=O)[C@H](CCCCN)NC(=O)[C@H](CCCNC(=N)N)NC(=O)[C@H](CC(C)C)NC(=O)[C@H](CCCNC(=N)N)NC(=O)[C@H](CCCCN)NC(=O)[C@H](CCCNC(=N)N)NC(=O)[C@H](CC(C)C)NC(=O)[C@@H](N)CCCNC(=N)N)[C@@H](C)CC)C(=O)NCC(=O)N[C@@H](CCC(N)=O)C(=O)N[C@@H](CCCCN)C(=O)N[C@H](C(=O)N[C@@H](CCC(N)=O)C(=O)NCC(=O)N[C@@H](Cc1ccccc1)C(=O)N[C@H](C(=O)N1CCC[C@H]1C(=O)N[C@@H](CCCCN)C(=O)N[C@@H](CC(C)C)C(=O)N[C@@H](CCC(N)=O)C(=O)N1CCC[C@H]1C(=O)N[C@@H](CO)C(=O)N[C@@H](CCCCN)C(=O)N[C@@H](CCC(N)=O)C(=O)N[C@@H](CO)C(=O)O)C(C)C)[C@@H](C)CC | Streptococcus sanguinis | inhibition zone | ATCC 1.2497 | LB agar, overnight | – | lethal concentration | 3.83 µM |
| CCN(Cc1ccccc1)C(=O)CCc1nc(CN2CCN(C(=O)Cc3ccc(OC)c(OC)c3)CC2)no1 | KCNQ2 (Homo sapiens, UniProt O43526) | potassium current, whole-cell patch clamp | CHO, stable | 3 µM | – | activation V1/2 | -49.9 ± 14.6 mV |
| CC[C@@H](C)[C@@H](NC(=O)[C@@H](C)NC(=O)[C@@H](CCCCN)NC(=O)[C@@H](CC(C)C)NC(=O)[C@@H](C)NC(=O)[C@H](NC(=O)[C@@H](Cc1c[nH]cn1)NC(=O)[C@@H](CC(C)C)NC(=O)[C@H](NC(=O)[C@H](NC(=O)[C@@H](CCCCN)NC(=O)[C@@H](CCCCN)NC(=O)[C@@H](C)NC(=O)[C@@H](CO)NC(=O)[C@@H](CCCCN)NC(=O)[C@@H](Cc1ccccc1)NC(=O)[C@H](NC(=O)[C@@H](CCCCN)NC(=O)[C@@H](CC(C)C)NC(=O)[C@@H](Cc1ccccc1)NC(=O)[C@@H](CO)NC(=O)[C@@H](CCCCN)NC(=O)[C@@H](Cc1c[nH]c2ccccc12)NC(=O)[C@@H](CCCCN)NC(C)=O)[C@H](C)O)[C@H](C)O)C(C)C)[C@H](C)O)C(=O)N[C@H](CO)C(=O)N[C@H](CO)C(N)=O | Acinetobacter baumannii | – | 11 isolates | – | baseline: HC50 over geometric mean MIC | therapeutic index | 128 |
| CC[C@H](C)[C@H](NC(=O)[C@H](CCCCN)NC(=O)[C@H](CCCCN)NC(=O)[C@H](CC(C)C)NC(=O)[C@H](CCCCN)NC(=O)[C@H](CCC(=O)O)NC(=O)[C@H](CCCCN)NC(=O)[C@@H](NC(=O)[C@H](CCCCN)NC(=O)[C@H](CC(N)=O)NC(=O)[C@H](CCCNC(=N)N)NC(=O)[C@H](Cc1ccccc1)NC(=O)[C@H](CCCCN)NC(=O)[C@H](CCCNC(=N)N)NC(=O)[C@H](CC(C)C)NC(=O)[C@H](CCCNC(=N)N)NC(=O)[C@H](CCCCN)NC(=O)[C@H](CCCNC(=N)N)NC(=O)[C@@H](N)CC(C)C)[C@@H](C)CC)C(=O)NCC(=O)N[C@@H](CCC(N)=O)C(=O)N[C@@H](CCCCN)C(=O)N[C@H](C(=O)N[C@@H](CCC(N)=O)C(=O)NCC(=O)N[C@@H](Cc1ccccc1)C(=O)N[C@H](C(=O)N1CCC[C@H]1C(=O)N[C@@H](CCCCN)C(=O)N[C@@H](CC(C)C)C(=O)O)C(C)C)[C@@H](C)CC | Streptococcus salivarius | inhibition zone | ATCC 1.2498 | LB agar, overnight | – | lethal concentration | 2.66 µM |
| CCCCCCCCC(=O)NCc1ccc(O)c(OC)c1 | mAb 5-D8 | antibody binding, indirect competitive ELISA | – | added: coating antigen hapten 4-OVA | – | IC50 | 0.00274 mg/L (≈ 0.00934 µM) |
| C=C(C)[C@@H]1CCC=C2CC[C@]3(C)[C@H](CC[C@@H]4[C@@]5(C)CCCNC(C)(C)[C@@H]5CC[C@]43C)[C@H]21 | Human cytomegalovirus | – | HFF, AD169 | – | baseline: CC50 over EC50 | selectivity index | < 3 |
| N=C(N)NCCC[C@@H]1NC(=O)[C@H](CCCCNC(=O)CNC(=O)CNC(=O)CNC(=O)CC[C@H](NC(=O)CCOCCOCCOCCOCCNC(=O)CC[C@H](NC(=O)CN2CCN(CC(=O)O)CCN(CC(=O)O)CCN(CC(=O)O)CC2)C(=O)NCCOCCOCCOCCOCCC(=O)N[C@@H](CCC(=O)NCC(=O)NCC(=O)NCC(=O)NCCCC[C@@H]2NC(=O)[C@@H](Cc3ccccc3)NC(=O)[C@H](CC(=O)O)NC(=O)CNC(=O)[C@H](CCCNC(=N)N)NC2=O)C(=O)NCC(=O)NCC(=O)NCC(=O)NCCCC[C@@H]2NC(=O)[C@@H](Cc3ccccc3)NC(=O)[C@H](CC(=O)O)NC(=O)CNC(=O)[C@H](CCCNC(=N)N)NC2=O)C(=O)NCC(=O)NCC(=O)NCC(=O)NCCCC[C@@H]2NC(=O)[C@@H](Cc3ccccc3)NC(=O)[C@H](CC(=O)O)NC(=O)CNC(=O)[C@H](CCCNC(=N)N)NC2=O)NC(=O)[C@@H](Cc2ccccc2)NC(=O)[C@H](CC(=O)O)NC(=O)CNC1=O [indium-111 labelled] | – | – | female athymic nude mice, kidney | intravenous, 3 µCi, 4 h, U-87 MG glioma xenograft | – | tissue uptake | 4.4 ± 0.63 %ID/g |
| CCC1c2cc(OC)c(O)cc2C(c2ccc(O)c(OC)c2)C1C (stereo not drawn) | Spodoptera frugiperda | – | larvae | 500 µg/mL | baseline: untreated control | antifeedant index | 33.7% |
| CC(C)C[C@@H]1NC(=O)[C@H](CCCCN)NC(=O)[C@H](C(C)C)NC(=O)[C@@H]2CCCN2C(=O)[C@@H](Cc2ccc(O)cc2)NC(=O)[C@H](CC(C)C)NC(=O)[C@H](CCCCN)NC(=O)[C@H](C(C)C)NC(=O)[C@H](CCCCN)NC(=O)[C@@H]2CCCN2C(=O)[C@@H](Cc2ccc(O)cc2)NC(=O)[C@H](CCCCN)NC1=O | Gram-negative bacteria | – | – | 24 h, 7 strains | – | MIC geometric mean | 105 mg/L (≈ 72 µM) |
| O=C1/C(=N\NC(=S)NN=Cc2cccs2)c2ccccc2N1Cc1ccccc1 | herpes simplex virus 1 | viral cytopathogenicity | HEL, KOS | – | – | EC50 | > 20 µM |
| COC(=O)C1=CO[C@@H](O)[C@@H]2C(Cn3cc(C4(O)CCCCC4)nn3)=CC[C@H]12 | SK-N-SH | neuroprotection, MTT | – | 0.075 µM, 24 h, added: 250 µM H2O2 | – | viability | 72.5 ± 2.5% |
| O=C(Cn1ccc(=O)c2ccccc21)N/N=C/c1cc(Br)c(O)c(Br)c1 | Rhizoctonia solani | microbial growth | – | 50 µg/mL | – | inhibition | 25% |
| C/C=C/c1ccc(OC(C)=O)c(OC)c1 | Spodoptera frugiperda | – | – | topical, larvae | – | LD50 | < 1000 mg/kg |
| Cc1nc2c(cnn2C(C)C)cc1C(=O)NCc1ccc(C(C)O)c(C)n1 (stereo not drawn) | Drosophila melanogaster | – | APP transgenic (Alzheimer model) | in food, 100 µM, 168 h, from adult day 7 | – | median survival | 40 days |
| CN[C@](C)(C[18F])C(=O)O | DU-145 tumour model | – | host not given, bone | 15 min, tumour-bearing | – | tracer uptake | 2.3 %ID/g |
| CC(=O)O[C@@H]1C[C@@H](C)O[C@H]2O[C@@H]3C[C@@H]4CC[C@@H]5[C@H](CC[C@]6(C)[C@@H](C7=CC(=O)OC7)CC[C@]56O)[C@@]4(C)C[C@H]3O[C@]21O | Schistosoma mansoni | – | mouse chronic infection, liver | oral, 10 mg/kg single, dead worms | – | worm count | 5.7 ± 2.5 |
| CCCC[C@H](NC(=O)CNC(=O)CNC(=O)c1ccc(NN)nc1)C(=O)N[C@H]1CC(=O)NCCCC[C@@H](C(N)=O)NC(=O)[C@H](Cc2c[nH]c3ccccc23)NC(=O)[C@H](CCCNC(=N)N)NC(=O)[C@@H](Cc2ccccc2)NC(=O)[C@H](Cc2c[nH]cn2)NC1=O [technetium-99m labelled] | – | – | C57 mouse, B16/F1 melanoma-bearing | intravenous, 4 h | baseline: tumour over kidney | tissue uptake ratio | 2.5 |
| CC(=O)CCC1C(=O)NC(C(C)C)C(=O)NC(Cc2cc(O)cc(F)c2)C(=O)N2CCCC(N2)C(=O)OC(C(C)=CC=CC(=O)N2CCCCO2)CC=CC=CC(O)C(C)C1O (stereo not drawn) | Hepatitis C virus | viral replication, inhibitor | HCV replicon cells, D320E | – | baseline: wild-type replicon | fold resistance | > 2 fold |
| COc1ccc(S(=O)(=O)NCc2c[nH]nc2-c2cccs2)cc1 | Plasmodium falciparum | – | – | – | – | EC90 | 35.5 µM |
| N=C(N)NCCC[C@@H]1NC(=O)[C@H](CCCCNC(=O)CC[C@H](NC(=O)CCOCCOCCOCCOCCNC(=O)CC[C@H](NC(=O)CN2CCN(CC(=O)O)CCN(CC(=O)O)CCN(CC(=O)O)CC2)C(=O)NCCOCCOCCOCCOCCC(=O)N[C@@H](CCC(=O)NCCCC[C@@H]2NC(=O)[C@@H](Cc3ccccc3)NC(=O)[C@H](CC(=O)O)NC(=O)CNC(=O)[C@H](CCCNC(=N)N)NC2=O)C(=O)NCCCC[C@@H]2NC(=O)[C@@H](Cc3ccccc3)NC(=O)[C@H](CC(=O)O)NC(=O)CNC(=O)[C@H](CCCNC(=N)N)NC2=O)C(=O)NCCCC[C@@H]2NC(=O)[C@@H](Cc3ccccc3)NC(=O)[C@H](CC(=O)O)NC(=O)CNC(=O)[C@H](CCCNC(=N)N)NC2=O)NC(=O)[C@@H](Cc2ccccc2)NC(=O)[C@H](CC(=O)O)NC(=O)CNC1=O [indium-111 labelled] | – | – | female athymic nude mouse | intravenous, 3 µCi, 72 h, U-87 MG glioma xenograft | baseline: tumour over muscle | tumour to muscle ratio | 25.9 ± 15.6 |
